Measurements pooled from the literature.
AMY2: Pancreatic alpha-amylase (AMY2, Sus scrofa, UniProt P00690)
Chain of UniProt P00690 (whole entry, looked up): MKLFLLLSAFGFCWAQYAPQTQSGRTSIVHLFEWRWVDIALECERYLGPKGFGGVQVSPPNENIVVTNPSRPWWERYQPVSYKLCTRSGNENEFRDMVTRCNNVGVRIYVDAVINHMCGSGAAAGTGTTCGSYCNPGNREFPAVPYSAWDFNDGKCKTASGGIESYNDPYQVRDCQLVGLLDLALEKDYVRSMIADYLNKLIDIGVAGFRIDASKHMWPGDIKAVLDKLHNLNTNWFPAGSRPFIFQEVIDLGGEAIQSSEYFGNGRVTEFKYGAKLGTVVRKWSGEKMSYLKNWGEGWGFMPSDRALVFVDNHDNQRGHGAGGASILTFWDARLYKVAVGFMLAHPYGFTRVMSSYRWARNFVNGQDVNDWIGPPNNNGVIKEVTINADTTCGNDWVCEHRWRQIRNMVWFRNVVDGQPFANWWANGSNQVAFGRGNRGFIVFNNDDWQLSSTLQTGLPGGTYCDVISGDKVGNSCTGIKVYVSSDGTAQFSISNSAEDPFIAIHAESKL
NT5E: 5'-nucleotidase (NT5E, Homo sapiens, UniProt P21589)
Chain of UniProt P21589 (whole entry, looked up): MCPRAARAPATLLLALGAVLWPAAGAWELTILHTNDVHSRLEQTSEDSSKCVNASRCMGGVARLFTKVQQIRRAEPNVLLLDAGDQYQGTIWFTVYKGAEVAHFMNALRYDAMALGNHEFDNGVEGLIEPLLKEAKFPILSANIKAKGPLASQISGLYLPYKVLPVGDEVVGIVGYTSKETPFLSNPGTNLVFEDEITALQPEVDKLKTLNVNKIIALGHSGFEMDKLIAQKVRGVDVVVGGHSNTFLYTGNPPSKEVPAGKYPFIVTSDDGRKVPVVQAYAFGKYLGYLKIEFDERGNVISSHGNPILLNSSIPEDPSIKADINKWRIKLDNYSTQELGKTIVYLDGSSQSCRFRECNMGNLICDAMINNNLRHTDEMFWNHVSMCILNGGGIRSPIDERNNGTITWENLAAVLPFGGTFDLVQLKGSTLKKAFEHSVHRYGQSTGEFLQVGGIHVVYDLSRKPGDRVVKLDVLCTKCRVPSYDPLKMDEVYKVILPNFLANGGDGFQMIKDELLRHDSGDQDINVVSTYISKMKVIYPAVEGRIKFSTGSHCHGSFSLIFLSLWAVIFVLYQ
rep main protease: Replicase polyprotein 1ab, main protease (rep, Porcine epidemic diarrhea virus, UniProt P0C6Y4)
SLC6A2: Sodium-dependent noradrenaline transporter (SLC6A2, Homo sapiens, UniProt P23975)
Chain of UniProt P23975 (whole entry, looked up): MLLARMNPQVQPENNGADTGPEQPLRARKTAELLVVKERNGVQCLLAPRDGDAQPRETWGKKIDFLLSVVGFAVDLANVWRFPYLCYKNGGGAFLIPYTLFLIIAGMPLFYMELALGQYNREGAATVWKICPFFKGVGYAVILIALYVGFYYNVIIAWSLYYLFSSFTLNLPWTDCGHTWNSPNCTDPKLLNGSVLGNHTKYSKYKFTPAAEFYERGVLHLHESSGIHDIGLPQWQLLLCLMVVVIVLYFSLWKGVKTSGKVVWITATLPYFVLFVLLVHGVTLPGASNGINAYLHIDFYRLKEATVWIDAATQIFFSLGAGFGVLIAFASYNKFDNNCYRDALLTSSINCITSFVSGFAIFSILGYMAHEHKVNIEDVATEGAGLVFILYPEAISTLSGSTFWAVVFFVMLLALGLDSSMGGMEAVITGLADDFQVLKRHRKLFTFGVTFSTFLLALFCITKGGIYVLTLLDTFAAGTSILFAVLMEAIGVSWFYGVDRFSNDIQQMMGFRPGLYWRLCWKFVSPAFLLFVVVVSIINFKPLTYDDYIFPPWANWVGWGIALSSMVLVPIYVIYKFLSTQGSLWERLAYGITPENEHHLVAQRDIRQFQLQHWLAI
CDK7 with cyclin H: Cyclin-dependent kinase 7, with cyclin H (CDK7, Homo sapiens, UniProt P50613)
Chain of UniProt P50613 (whole entry, looked up): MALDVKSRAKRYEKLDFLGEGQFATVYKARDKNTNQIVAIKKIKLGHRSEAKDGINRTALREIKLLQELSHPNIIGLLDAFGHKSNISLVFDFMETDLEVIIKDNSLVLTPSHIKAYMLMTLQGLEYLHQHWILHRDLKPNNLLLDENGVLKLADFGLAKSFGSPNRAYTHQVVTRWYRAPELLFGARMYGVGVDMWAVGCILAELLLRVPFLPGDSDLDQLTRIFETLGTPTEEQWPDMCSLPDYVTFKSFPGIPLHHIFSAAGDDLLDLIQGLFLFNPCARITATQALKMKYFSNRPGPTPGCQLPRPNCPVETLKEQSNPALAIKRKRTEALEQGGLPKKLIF
PIP4K2C: Phosphatidylinositol 5-phosphate 4-kinase type-2 gamma (PIP4K2C, Homo sapiens, UniProt Q8TBX8)
Chain of UniProt Q8TBX8 (whole entry, looked up): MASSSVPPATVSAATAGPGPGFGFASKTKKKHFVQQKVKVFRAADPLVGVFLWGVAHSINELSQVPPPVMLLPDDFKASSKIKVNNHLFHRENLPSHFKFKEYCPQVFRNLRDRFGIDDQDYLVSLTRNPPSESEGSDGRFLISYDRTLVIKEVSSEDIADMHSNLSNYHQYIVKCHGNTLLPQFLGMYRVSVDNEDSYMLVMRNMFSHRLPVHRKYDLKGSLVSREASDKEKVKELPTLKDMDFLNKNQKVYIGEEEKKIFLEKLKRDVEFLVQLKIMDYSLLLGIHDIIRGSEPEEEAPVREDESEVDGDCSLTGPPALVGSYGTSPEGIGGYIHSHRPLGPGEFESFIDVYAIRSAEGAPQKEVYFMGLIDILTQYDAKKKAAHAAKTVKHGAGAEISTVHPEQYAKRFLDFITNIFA
MAOB: Amine oxidase [flavin-containing] B (MAOB, Homo sapiens, UniProt P27338)
Chain of UniProt P27338 (whole entry, looked up): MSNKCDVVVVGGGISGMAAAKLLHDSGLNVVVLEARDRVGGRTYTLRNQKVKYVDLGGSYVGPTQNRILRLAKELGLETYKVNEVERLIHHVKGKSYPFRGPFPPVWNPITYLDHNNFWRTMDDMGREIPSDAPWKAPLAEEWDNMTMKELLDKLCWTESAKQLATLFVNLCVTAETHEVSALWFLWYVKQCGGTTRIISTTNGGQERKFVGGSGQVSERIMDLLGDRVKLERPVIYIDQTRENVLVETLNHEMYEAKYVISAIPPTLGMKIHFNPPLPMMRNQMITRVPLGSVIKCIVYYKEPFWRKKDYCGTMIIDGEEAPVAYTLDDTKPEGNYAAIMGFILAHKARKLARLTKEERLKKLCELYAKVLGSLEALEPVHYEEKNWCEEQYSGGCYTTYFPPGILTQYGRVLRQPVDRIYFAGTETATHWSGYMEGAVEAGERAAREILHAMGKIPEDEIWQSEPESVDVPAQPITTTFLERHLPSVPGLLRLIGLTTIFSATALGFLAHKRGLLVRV
SLC22A11: Solute carrier family 22 member 11 (SLC22A11, Homo sapiens, UniProt Q9NSA0)
Chain of UniProt Q9NSA0 (whole entry, looked up): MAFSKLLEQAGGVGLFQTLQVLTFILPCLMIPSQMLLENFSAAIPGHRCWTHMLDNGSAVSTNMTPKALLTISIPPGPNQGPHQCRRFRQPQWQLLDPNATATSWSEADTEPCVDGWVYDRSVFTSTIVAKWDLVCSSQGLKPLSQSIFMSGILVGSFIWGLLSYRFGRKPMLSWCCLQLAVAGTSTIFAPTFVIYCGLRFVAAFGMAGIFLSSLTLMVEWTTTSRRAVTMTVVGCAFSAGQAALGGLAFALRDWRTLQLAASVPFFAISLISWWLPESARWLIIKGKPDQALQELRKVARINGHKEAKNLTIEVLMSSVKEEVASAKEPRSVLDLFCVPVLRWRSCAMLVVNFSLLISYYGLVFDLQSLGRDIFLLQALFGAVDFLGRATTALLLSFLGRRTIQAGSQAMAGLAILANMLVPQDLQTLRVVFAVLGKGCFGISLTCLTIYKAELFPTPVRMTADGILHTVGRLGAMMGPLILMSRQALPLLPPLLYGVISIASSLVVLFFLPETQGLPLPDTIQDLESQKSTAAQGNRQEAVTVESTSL
rep papain-like protease: Replicase polyprotein 1ab, papain-like protease (rep, Porcine epidemic diarrhea virus, UniProt P0C6Y4)
Chain of UniProt Q13370 (whole entry, looked up): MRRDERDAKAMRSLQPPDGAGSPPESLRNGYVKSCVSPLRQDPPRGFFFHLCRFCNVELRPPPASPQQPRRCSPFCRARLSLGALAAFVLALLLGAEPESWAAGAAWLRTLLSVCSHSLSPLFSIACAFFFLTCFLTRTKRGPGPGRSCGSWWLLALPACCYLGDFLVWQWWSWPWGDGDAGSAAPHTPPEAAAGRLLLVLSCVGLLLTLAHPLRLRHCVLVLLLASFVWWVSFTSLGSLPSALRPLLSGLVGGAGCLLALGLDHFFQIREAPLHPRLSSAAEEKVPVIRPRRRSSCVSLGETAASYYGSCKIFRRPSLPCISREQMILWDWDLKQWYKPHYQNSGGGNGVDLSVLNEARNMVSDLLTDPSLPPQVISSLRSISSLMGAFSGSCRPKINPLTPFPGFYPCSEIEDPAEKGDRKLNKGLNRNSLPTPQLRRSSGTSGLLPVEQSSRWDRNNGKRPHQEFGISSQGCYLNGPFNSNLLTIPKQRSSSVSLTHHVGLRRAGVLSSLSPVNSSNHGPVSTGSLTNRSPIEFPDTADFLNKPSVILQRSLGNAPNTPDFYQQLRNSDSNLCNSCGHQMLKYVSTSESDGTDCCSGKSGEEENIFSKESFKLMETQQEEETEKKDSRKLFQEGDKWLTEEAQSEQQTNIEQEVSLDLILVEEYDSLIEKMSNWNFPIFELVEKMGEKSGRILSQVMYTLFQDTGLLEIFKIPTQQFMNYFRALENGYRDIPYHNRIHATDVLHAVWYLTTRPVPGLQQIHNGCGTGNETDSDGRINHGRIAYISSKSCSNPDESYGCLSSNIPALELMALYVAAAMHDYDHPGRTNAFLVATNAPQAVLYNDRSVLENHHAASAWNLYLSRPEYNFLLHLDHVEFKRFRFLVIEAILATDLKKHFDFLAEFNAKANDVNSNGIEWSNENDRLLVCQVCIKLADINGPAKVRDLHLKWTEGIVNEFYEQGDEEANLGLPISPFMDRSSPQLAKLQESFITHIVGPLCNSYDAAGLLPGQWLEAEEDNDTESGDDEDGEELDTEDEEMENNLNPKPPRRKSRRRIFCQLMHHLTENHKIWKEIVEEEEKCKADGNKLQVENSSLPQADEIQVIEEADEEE
Chain of UniProt Q00535 (whole entry, looked up): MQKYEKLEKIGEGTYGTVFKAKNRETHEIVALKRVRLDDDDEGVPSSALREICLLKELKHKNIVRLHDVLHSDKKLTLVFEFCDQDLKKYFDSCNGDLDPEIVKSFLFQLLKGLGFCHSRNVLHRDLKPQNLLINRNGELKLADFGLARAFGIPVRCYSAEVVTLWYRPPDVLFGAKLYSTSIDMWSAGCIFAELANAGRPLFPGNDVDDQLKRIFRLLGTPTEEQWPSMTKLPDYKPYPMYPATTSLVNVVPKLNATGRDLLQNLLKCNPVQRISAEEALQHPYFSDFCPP

`Cc1cc(NS(=O)(=O)c2ccc(N=NN(O)c3ccccc3)cc2)no1` gave an inhibition of 42.1% (AMY2; enzyme activity, inhibitor; 120 µg/mL).
`C=CC(=O)N1CCC(COCC(=O)N2CCN(c3nc(-c4cnc(N)nc4C(F)F)nc(N4CCOC[C@@H]4C)n3)CC2)CC1` gave a remaining binding of 100% (Mitogen-activated protein kinase kinase kinase 20 (MAP3K20, Homo sapiens, UniProt Q9NYL2); binding, competition with immobilised ligand; 1 µM).
With `CCCN(O)N=Nc1ccc(S(=O)(=O)Nc2cc(C)on2)cc1` the inhibition was 47.4% (AMY2; enzyme activity, inhibitor; 180 µg/mL).
With `CCOC(=O)c1ccc(NC(=O)c2sc3nc(-c4ccccc4)cc(C(F)(F)F)c3c2N)cc1` the inhibition was 92% (NT5E; enzyme activity, inhibitor, HPLC; 10 µM).
`COc1cc(CNC(=O)c2ccccc2SC)cc(Br)c1OC` gave an inhibition of 19.9% (rep main protease; enzyme activity, inhibitor, FRET; 10 µM).
The inhibition of `N#C[C@@]12C[C@@H]1[C@@H](n1cnc3c(Nc4ccccc4)nc(I)nc31)[C@H](O)[C@@H]2O` is reported as 11% (SLC6A2; ligand displacement, radioligand; 10 µM).
For `O=C1C[C@@H](c2ccc(O)cc2)Oc2cc(O)cc(O)c21`, the inhibition was 32.8% (AMY2; enzyme activity, inhibitor; 50 µM, 30 min).
For `CC1(C)[C@@H](O)CC[C@]2(C)[C@H]3C(=O)C=C4[C@@H]5C[C@@](C)(C(=O)O)CC[C@]5(C)CC[C@@]4(C)[C@]3(C)CC[C@@H]12`, the inhibition was 33.1% (CDK7 with cyclin H; enzyme activity, inhibitor, ADP detection; 10 µM).
`O=C(NCc1cc(O)c(O)c(Br)c1)c1ccc(Cl)c(F)c1` gave an inhibition of 105% (rep main protease; enzyme activity, inhibitor, FRET; 10 µM).
The inhibition of `C=C1CC[C@@H]2[C@](C)(CO)[C@H](O)CC[C@@]2(C)[C@@H]1/C=C/C1=CCOC1=O` is reported as 11.2% (CDK7 with cyclin H; enzyme activity, inhibitor, ADP detection; 10 µM).
`CCCCC(=O)Nc1ccc(-c2ccc3ncn(CCC)c(=O)c3c2)cc1` gave an inhibition of 99.7% (PIP4K2C; binding, competition with immobilised ligand; 0.5 µM).
With `NC/C(=C\F)COc1cccc(Cn2c(=S)[nH]c(=O)c3[nH]cnc32)c1` the inhibition was less than 50% (5-hydroxytryptamine receptor 3A (HTR3A, Homo sapiens, UniProt P46098); ligand displacement, radioligand; 10 µM).
`O=C(Nc1ccc(Cl)c(Cl)c1)c1ccc2c(c1)C(=O)NC2=O` gave an inhibition of 95.7% (MAOB; enzyme activity, inhibitor; 1 µM).
With `Cc1cccc(NC(=O)c2sc3nc(C)cc(C(F)(F)F)c3c2N)n1` the inhibition was 32% (NT5E; enzyme activity, inhibitor; 10 µM).
The inhibition of `Cc1cccc(N(O)N=Nc2ccc(S(=O)(=O)Nc3cc(C)on3)cc2)c1` is reported as 36.8% (AMY2; enzyme activity, inhibitor; 120 µg/mL).
With `Cc1cc(C(F)(F)F)c2c(N)c(C(=O)NCc3ccccc3)sc2n1` the inhibition was 30% (NT5E; enzyme activity, inhibitor; 10 µM).
`CN1CC(Oc2cnc(C#N)cc2-c2ccn3nc(NC(=O)C4CC4)cc3c2)C1` has an inhibition of -7% (Discoidin domain-containing receptor 2 (DDR2, Homo sapiens, UniProt Q16832); enzyme activity, inhibitor; 1 µM).
`CNc1ncc2c(/C=C/C(=O)N3CCC(OC)CC3)nn(Cc3cccc(C(F)(F)F)c3)c2n1` has a remaining activity of 99% (Homeodomain-interacting protein kinase 2 (HIPK2, Homo sapiens, UniProt Q9H2X6); enzyme activity, inhibitor, radiometric; 1 µM).
`c1ccc2[nH]c(-c3cscn3)nc2c1` has an inhibition of 81.3% (SLC22A11; transporter uptake, inhibitor; 25 µM).
`CCC(C(=O)NCc1cc(O)c(O)c(Br)c1)c1ccccc1` (stereo not drawn) has an inhibition of 87.5% (rep main protease; enzyme activity, inhibitor, FRET; 10 µM).
`Cc1ccc(N(O)N=Nc2ccc(S(=O)(=O)Nc3cc(C)on3)cc2)cc1` gave an inhibition of 57.9% (AMY2; enzyme activity, inhibitor; 180 µg/mL).
The inhibition of `N#Cc1cccc(C(=O)NCc2cc(O)c(O)c(Br)c2)c1` is reported as 72% (rep papain-like protease; enzyme activity, inhibitor, FRET; 10 µM).
The remaining signal of `C1=C/COCc2cc(ccc2OCCN2CCCC2)Nc2nccc(n2)-c2cccc(c2)COC/1` is reported as 95% (Membrane-associated tyrosine- and threonine-specific cdc2-inhibitory kinase (PKMYT1, Homo sapiens, UniProt Q99640); cell-free assay; 0.1 µM).
The remaining activity of `COc1cc(-c2cncc3c2CN(C)Cc2cc(N4CCNCC4)ccc2-3)cc(OC)c1OC` is reported as 94% (Serine/threonine-protein kinase NLK (NLK, Homo sapiens, UniProt Q9UBE8); enzyme activity, inhibitor; 1 µM).
`COC(=O)c1c(OC)cc2c(c1C)Oc1c(Cl)c(O)c(Cl)c(C)c1C(=O)O2` has an inhibition of 92.2% (SLC22A11; transporter uptake, inhibitor; 25 µM).
For `CCOC(=O)[C@@]12C[C@@H]1[C@@H](n1cnc3c(NC4CC4)nc(C#Cc4ccc(Cl)s4)nc31)[C@H](O)[C@@H]2O`, the inhibition was 63% (SLC6A2; ligand displacement, radioligand; 10 µM).
`CCN(O)N=Nc1ccc(S(=O)(=O)Nc2nccs2)cc1` gave an inhibition of 42.1% (AMY2; enzyme activity, inhibitor; 180 µg/mL).
`CC[C@H](C)[C@H](NC(=O)[C@H](CCC(N)=O)NC(=O)[C@@H](NC(=O)[C@H](CCSC)NC(=O)[C@H](CCCCN)NC(=O)[C@H](CO)NC(=O)[C@@H](NC(=O)[C@H](CCSC)NC(=O)[C@H](CC(C)C)NC(=O)[C@H](CC(N)=O)NC(=O)[C@@H](NC(=O)[C@@H](NC(=O)[C@H](CO)NC(=O)[C@H](CC(C)C)NC(=O)[C@H](C)NC(=O)[C@H](CCCNC(=N)N)NC(=O)[C@H](CCC(=O)O)NC(=O)[C@H](Cc1ccc(O)cc1)NC(=O)[C@H](Cc1ccccc1)NC(=O)[C@H](C)NC(=O)[C@H](CC(N)=O)NC(=O)[C@@H](N)CCCCN)[C@@H](C)CC)[C@@H](C)CC)[C@@H](C)O)C(C)C)C(=O)N[C@@H](CC(N)=O)C(=O)N[C@H](C(=O)O)C(C)C` gave an inhibition of 85% (Cyclin-dependent kinase 5, with p25 (CDK5, Homo sapiens, UniProt Q00535); enzyme activity, inhibitor, radiometric; 500 µM).
`COc1cc(CNC(=O)c2ccc(Cl)s2)cc(Br)c1OC` gave an inhibition of 42.6% (rep main protease; enzyme activity, inhibitor, FRET; 10 µM).
`COC(=O)CNC(=O)CCSc1nc(C)cc(C)c1C#N` has an inhibition of -22% (NT5E; enzyme activity, inhibitor; 10 µM).
For `CCc1nn(C)c2nc(-c3ccc(C(=O)O)cc3)nc(NCc3ccc(F)cc3)c12`, the inhibition was 2% (cGMP-inhibited 3',5'-cyclic phosphodiesterase 3B (PDE3B, Homo sapiens, UniProt Q13370); enzyme activity, inhibitor, radiometric; 10 µM).
The inhibition of `CC(=O)c1nn(CC(=O)N2C[C@H](F)C[C@H]2C(=O)Nc2cccc(Br)n2)c2ccc(-c3cnc(C)nc3)cc12` is reported as 2.5% (Urokinase-type plasminogen activator (PLAU, Homo sapiens, UniProt P00749); enzyme activity, inhibitor; 10 µM).
`Cc1cccc(N(O)N=Nc2ccc(S(=O)(=O)Nc3nccs3)cc2)c1` has an inhibition of 63.2% (AMY2; enzyme activity, inhibitor; 300 µg/mL).
`CC[C@H](C)[C@H](NC(=O)[C@H](CCC(N)=O)NC(=O)[C@H](CC(C)C)NC(=O)[C@H](CCSC)NC(=O)[C@H](CCCCN)NC(=O)[C@H](CO)NC(=O)[C@H](CO)NC(=O)[C@H](CCSC)NC(=O)[C@H](CC(C)C)NC(=O)[C@H](CC(N)=O)NC(=O)[C@@H](NC(=O)[C@@H](NC(=O)[C@H](CO)NC(=O)[C@H](CC(C)C)NC(=O)[C@H](CS)NC(=O)[C@H](CCCNC(=N)N)NC(=O)[C@H](CC(=O)O)NC(=O)[C@H](Cc1c[nH]c2ccccc12)NC(=O)[C@H](Cc1ccccc1)NC(=O)[C@H](C)NC(=O)[C@H](CCC(=O)O)NC(=O)[C@@H](N)CCCCN)C(C)C)[C@@H](C)CC)C(=O)N[C@@H](CC(N)=O)C(=O)N[C@@H](C)C(=O)O` gave an inhibition of 0% (Mitogen-activated protein kinase 3 (MAPK3, Homo sapiens, UniProt P27361); enzyme activity, inhibitor, radiometric; 1 µM).
With `CNc1cc(Oc2cc(C(=O)Nc3cc(N4CCN(C)CC4)cc(C(F)(F)F)c3)ccc2C)ncn1` the inhibition was -70.9% (Ribosomal protein S6 kinase alpha-3, N-terminal kinase domain (RPS6KA3, Homo sapiens, UniProt P51812); target engagement in cells, inhibitor, chemoproteomics; Huh-7; 1 µM).
`Cc1cccc(N(O)N=Nc2ccc(S(=O)(=O)Nc3onc(C)c3C)cc2)c1` gave an inhibition of 68.4% (AMY2; enzyme activity, inhibitor; 300 µg/mL).
`Cc1cc([C@@H](C)Nc2ccccc2C(=O)O)c2nc(N3CCC(F)(F)CC3)c(C#N)c(=O)n2c1` gave a remaining binding of 0% (Aurora kinase B (AURKB, Homo sapiens, UniProt Q96GD4); binding, competition with immobilised ligand; 1 µM).
`CN(C)c1ccc(C(=O)NCc2cc(O)c(O)c(Br)c2)cc1` has an inhibition of 96.9% (rep main protease; enzyme activity, inhibitor, FRET; 10 µM).
With `C#Cc1cc(-c2cc(Nc3nc(N[C@@H](C)c4ccc(F)cn4)ncc3Cl)n[nH]2)ccc1C=O` the inhibition was 25% (Serine/threonine-protein kinase LATS2 (LATS2, Homo sapiens, UniProt Q9NRM7); enzyme activity, inhibitor; 0.2 µM).
With `CCC(CC(=O)NCc1cc(Br)c(OC)c(OC)c1)c1ccccc1` (stereo not drawn) the inhibition was 29.6% (rep papain-like protease; enzyme activity, inhibitor, FRET; 10 µM).
With `CC(=O)O[C@H]1C(=O)[C@@]2(C)[C@H]([C@H](OC(=O)c3ccccc3)[C@]3(O)C[C@H](OC(=O)[C@H](O)[C@@H](NC(=O)c4ccccc4)c4ccccc4)C(C)=C1C3(C)C)[C@]1(OC(C)=O)CO[C@@H]1C[C@@H]2O` the inhibition was 24% (CDK7 with cyclin H; enzyme activity, inhibitor, ADP detection; 10 µM).
With `O=C(Nc1ccc(F)cc1)c1ccc2c(c1)C(=O)NC2=O` the inhibition was 44.2% (MAOB; enzyme activity, inhibitor; 1 µM).
`CCCCCC(=O)Nc1ccc(-c2ccc3ncn(Cc4ccccc4)c(=O)c3c2)cn1` has an inhibition of less than 80% (PIP4K2C; binding; 0.5 µM).
The inhibition of `Cc1ccc(N(O)N=Nc2ccc(S(=O)(=O)Nc3onc(C)c3C)cc2)cc1` is reported as 31.6% (AMY2; enzyme activity, inhibitor; 120 µg/mL).
The inhibition of `Cc1cccc(NC(=O)c2sc3nc(-c4ccccc4)cc(C(F)(F)F)c3c2N)n1` is reported as 39% (NT5E; enzyme activity, inhibitor; 10 µM).
The inhibition of `O=C(NCc1cc(O)c(O)c(Br)c1)c1ccc(OC(F)(F)F)cc1` is reported as 98.3% (rep main protease; enzyme activity, inhibitor, FRET; 10 µM).
With `Nc1c(C(=O)Nc2cccnc2)sc2nc(-c3ccccc3)cc(C(F)(F)F)c12` the inhibition was 73% (NT5E; enzyme activity, inhibitor; 10 µM).
`CCCCCC(=O)Nc1ccc(-c2ccc3ncn(CCC)c(=O)c3c2)cn1` gave an inhibition of 97.7% (PIP4K2C; binding, competition with immobilised ligand; 0.5 µM).

For quick reference, copied from above:
`CCCCC(=O)Nc1ccc(-c2ccc3ncn(CCC)c(=O)c3c2)cc1` gave an inhibition of 99.7% (PIP4K2C; binding, competition with immobilised ligand; 0.5 µM).
`C=CC(=O)N1CCC(COCC(=O)N2CCN(c3nc(-c4cnc(N)nc4C(F)F)nc(N4CCOC[C@@H]4C)n3)CC2)CC1` gave a remaining binding of 100% (Mitogen-activated protein kinase kinase kinase 20 (MAP3K20, Homo sapiens, UniProt Q9NYL2); binding, competition with immobilised ligand; 1 µM).
`CN(C)c1ccc(C(=O)NCc2cc(O)c(O)c(Br)c2)cc1` has an inhibition of 96.9% (rep main protease; enzyme activity, inhibitor, FRET; 10 µM).
With `CC(=O)O[C@H]1C(=O)[C@@]2(C)[C@H]([C@H](OC(=O)c3ccccc3)[C@]3(O)C[C@H](OC(=O)[C@H](O)[C@@H](NC(=O)c4ccccc4)c4ccccc4)C(C)=C1C3(C)C)[C@]1(OC(C)=O)CO[C@@H]1C[C@@H]2O` the inhibition was 24% (CDK7 with cyclin H; enzyme activity, inhibitor, ADP detection; 10 µM).
With `C#Cc1cc(-c2cc(Nc3nc(N[C@@H](C)c4ccc(F)cn4)ncc3Cl)n[nH]2)ccc1C=O` the inhibition was 25% (Serine/threonine-protein kinase LATS2 (LATS2, Homo sapiens, UniProt Q9NRM7); enzyme activity, inhibitor; 0.2 µM).
